Measured values from different studies.
WRKY11 full length assumed: WRKY11 full length assumed (Arabidopsis thaliana, UniProt Q9SV15)
Sequence of UniProt Q9SV15 (whole entry, looked up): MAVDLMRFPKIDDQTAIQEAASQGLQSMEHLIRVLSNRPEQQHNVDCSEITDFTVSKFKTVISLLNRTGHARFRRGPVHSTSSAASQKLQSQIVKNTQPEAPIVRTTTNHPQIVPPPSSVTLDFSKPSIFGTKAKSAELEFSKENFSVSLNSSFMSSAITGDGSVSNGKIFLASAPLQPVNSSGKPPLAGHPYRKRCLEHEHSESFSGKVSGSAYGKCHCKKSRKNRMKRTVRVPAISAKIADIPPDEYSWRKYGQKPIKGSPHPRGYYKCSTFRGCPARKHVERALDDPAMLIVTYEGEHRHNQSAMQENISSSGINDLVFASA
Smad5: Smad5 1-143 (Mus musculus, UniProt P97454)
Sequence of UniProt P97454 (whole entry, looked up): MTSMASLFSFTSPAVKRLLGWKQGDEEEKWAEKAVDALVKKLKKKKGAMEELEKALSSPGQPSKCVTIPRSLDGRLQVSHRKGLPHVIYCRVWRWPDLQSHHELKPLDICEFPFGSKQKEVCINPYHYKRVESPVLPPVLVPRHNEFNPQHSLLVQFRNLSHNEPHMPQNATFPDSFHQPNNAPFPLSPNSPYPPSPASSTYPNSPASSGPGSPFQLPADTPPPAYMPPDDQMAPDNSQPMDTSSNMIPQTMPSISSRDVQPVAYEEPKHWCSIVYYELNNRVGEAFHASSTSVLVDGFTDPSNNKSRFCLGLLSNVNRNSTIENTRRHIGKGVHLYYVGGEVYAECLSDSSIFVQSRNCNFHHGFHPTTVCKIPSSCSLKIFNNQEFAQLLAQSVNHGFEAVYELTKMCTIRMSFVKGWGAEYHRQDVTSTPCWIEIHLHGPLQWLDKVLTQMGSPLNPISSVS
brat: brat 756-1037 (Drosophila melanogaster, UniProt Q8MQJ9)
Sequence of UniProt Q8MQJ9 (whole entry, looked up): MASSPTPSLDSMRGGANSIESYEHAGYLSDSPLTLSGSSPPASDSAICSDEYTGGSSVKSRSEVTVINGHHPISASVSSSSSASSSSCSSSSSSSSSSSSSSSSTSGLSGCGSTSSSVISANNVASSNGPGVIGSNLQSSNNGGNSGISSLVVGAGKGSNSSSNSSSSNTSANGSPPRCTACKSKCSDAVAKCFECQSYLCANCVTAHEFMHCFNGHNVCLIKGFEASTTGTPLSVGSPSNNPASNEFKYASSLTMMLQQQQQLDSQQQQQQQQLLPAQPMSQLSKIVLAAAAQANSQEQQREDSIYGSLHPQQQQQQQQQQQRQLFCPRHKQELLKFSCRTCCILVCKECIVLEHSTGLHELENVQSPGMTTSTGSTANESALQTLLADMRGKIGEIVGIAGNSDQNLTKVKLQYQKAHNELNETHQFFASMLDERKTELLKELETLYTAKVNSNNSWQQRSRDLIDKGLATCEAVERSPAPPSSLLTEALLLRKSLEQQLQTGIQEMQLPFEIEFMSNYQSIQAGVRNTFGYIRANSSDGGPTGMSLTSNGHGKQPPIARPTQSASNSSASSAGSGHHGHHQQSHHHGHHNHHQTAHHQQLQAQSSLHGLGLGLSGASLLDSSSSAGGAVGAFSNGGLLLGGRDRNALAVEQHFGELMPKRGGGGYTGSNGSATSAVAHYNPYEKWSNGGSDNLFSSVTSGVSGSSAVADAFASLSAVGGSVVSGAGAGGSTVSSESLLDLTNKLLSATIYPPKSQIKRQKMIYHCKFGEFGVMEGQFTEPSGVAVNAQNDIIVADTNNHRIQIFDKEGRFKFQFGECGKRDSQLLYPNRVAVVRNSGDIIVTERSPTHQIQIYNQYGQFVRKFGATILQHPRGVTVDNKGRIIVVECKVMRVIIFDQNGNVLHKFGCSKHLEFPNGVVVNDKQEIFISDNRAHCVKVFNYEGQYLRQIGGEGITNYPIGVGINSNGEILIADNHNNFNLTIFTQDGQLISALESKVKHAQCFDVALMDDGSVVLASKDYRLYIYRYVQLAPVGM
Transcription factor bHLH93: Transcription factor bHLH93 (Gossypium hirsutum, UniProt A0ABM3A805)
T1: Aebp2 223-496 (Mus musculus); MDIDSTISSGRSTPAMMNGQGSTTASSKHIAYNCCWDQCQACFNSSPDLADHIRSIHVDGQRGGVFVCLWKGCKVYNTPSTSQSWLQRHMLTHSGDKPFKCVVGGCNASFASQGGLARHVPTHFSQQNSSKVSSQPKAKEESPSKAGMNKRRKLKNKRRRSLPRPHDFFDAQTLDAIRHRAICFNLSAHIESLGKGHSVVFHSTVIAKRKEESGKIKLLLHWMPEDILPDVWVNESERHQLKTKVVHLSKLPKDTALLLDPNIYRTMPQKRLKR
T2: ZFP57 residues 227-287 C232F (Homo sapiens); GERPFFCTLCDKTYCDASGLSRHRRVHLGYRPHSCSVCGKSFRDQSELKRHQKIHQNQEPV
T3: NFATC3 393-708; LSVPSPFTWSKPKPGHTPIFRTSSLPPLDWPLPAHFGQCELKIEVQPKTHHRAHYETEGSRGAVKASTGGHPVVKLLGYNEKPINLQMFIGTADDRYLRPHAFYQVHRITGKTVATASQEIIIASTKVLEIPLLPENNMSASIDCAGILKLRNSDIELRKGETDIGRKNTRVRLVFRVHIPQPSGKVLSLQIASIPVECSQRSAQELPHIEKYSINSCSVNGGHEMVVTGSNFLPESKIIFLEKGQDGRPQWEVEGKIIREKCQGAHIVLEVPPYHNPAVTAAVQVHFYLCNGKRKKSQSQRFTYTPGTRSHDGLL
Sequence of UniProt Q96PU8 (whole entry, looked up): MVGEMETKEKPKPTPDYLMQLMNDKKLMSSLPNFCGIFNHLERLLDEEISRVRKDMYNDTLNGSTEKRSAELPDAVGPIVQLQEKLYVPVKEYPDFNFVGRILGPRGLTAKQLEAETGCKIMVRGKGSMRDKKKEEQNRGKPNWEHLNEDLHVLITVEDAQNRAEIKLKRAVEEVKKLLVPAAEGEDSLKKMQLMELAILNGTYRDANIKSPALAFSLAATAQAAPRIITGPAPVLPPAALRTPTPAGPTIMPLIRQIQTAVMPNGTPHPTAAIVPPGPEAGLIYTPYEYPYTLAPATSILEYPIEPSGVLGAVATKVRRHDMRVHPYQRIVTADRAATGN
Sequence of UniProt Q7Z739 (whole entry, looked up): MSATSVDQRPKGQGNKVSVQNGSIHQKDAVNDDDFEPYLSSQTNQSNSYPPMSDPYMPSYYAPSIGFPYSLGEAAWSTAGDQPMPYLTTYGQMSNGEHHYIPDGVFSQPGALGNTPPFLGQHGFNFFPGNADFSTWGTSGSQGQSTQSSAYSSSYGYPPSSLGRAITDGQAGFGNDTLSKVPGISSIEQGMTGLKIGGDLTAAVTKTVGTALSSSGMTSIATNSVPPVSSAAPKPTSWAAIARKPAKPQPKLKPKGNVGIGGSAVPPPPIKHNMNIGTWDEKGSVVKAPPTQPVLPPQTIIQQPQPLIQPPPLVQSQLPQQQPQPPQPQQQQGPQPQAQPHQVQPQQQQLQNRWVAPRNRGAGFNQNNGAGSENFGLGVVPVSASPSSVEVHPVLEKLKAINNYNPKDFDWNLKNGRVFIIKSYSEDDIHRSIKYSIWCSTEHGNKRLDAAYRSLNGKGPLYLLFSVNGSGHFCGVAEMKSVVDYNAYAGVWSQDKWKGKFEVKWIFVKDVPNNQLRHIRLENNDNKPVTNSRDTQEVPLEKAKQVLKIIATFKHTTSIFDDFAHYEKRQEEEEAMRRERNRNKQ
Sequence of UniProt O31691 (whole entry, looked up): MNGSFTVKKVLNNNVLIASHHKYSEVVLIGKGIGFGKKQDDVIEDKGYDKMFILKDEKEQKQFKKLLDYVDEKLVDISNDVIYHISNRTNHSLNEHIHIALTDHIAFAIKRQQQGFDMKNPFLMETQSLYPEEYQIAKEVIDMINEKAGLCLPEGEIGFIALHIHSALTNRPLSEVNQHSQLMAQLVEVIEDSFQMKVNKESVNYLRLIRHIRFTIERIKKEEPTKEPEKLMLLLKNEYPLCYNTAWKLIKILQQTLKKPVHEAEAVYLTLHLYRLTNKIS

| Sequence | target | read-out | method | form | notes | together with | binding |
| --- | --- | --- | --- | --- | --- | --- | --- |
| TTATTCAGCCATCAAAAGTTGACCCATAAT (dsDNA) | WRKY11 full length assumed | – | EMSA | double-stranded DNA, one strand shown | – | – | binds |
| ATGTGTTAGTTGGGGGGTGACTGTTAAAAGTGCATACCGCCAAAAGATAAAATTTGAAATCTG (dsDNA; 2-aminopurine at -1 non-template) | POLRMT/TFAM/TFB2M 43-1230; 43-245; 21-396 (Homo sapiens) | – | 2-AP fluorescence | double-stranded DNA, one strand shown | – | ATP | binds |
| CGCCTGGCGCCAGAGA (dsDNA) | Smad5 | – | EMSA | double-stranded DNA, one strand shown | – | – | binds |
| GUUCUUUUUUGCUUUUUUUUGGGCUUUUUCUCAUU (ssRNA) | Uncharacterized protein (Zea mays, UniProt K7TID7) | – | EMSA | RNA | – | – | binds |
| UAUUUUGUUGUCGAAAAUGGGACAGGA (ssRNA) | brat | – | EMSA | RNA | – | – | binds |
| GTTCATTTTCCAAATGGAAAATGTTT (dsDNA) | Transcription factor bHLH93 | – | EMSA | double-stranded DNA, one strand shown | – | – | binds |
| DNA 1 GTCGACCAGCTGAGTCGACCAGCTG / DNA 2 CAGCTGGTCGAC / DNA 3 CAGCTGGTCGAC (dsDNA; nicked, N6-methyl-dA) | YTHDF3 400-585 (Homo sapiens, UniProt Q7Z739) | – | pull-down | double-stranded DNA | – | – | binds |
| GATCTTTAGTTAACAAAAAAACTGTCTGCAGGCCACTCCAGATC (dsDNA) | T1, Aebp2 223-496 (Mus musculus) | – | competition binding | double-stranded DNA, one strand shown | – | labelled T1 probe | no binding |
| TTATTCAGCCATCAAAAGTTGATCAATAAT (dsDNA) | WRKY11 full length assumed | – | EMSA | double-stranded DNA, one strand shown | – | – | no binding |
| GGUGCUCGCUUCGGCAGCACUAUACUAAAAU (structured RNA (Homo sapiens); hairpin, single-stranded flank) | QKI 76-205 (Homo sapiens, UniProt Q96PU8) | – | NMR titration | folded RNA | – | – | binds |
| GATCTTTAGTTAACTTCCTCTCTGTCTGCTGTCTGCAGGCCACTCCAGATC (dsDNA) | T1, Aebp2 223-496 (Mus musculus) | – | competition binding | double-stranded DNA, one strand shown | – | labelled T1 probe | binds |
| AGTCCCTCTCCAGAACTTTCCCACAACAACCA (dsDNA) | HSF-type DNA-binding domain-containing protein 1-200 (Malus domestica, UniProt A0A498J7G8) | – | EMSA | double-stranded DNA, one strand shown | – | – | binds |
| AGAAACAACTTGACCCTTTACATTGCTCAAGAGCTCATCTCTT (dsDNA) | Uncharacterized protein 424-651 (Zea mays, UniProt A0A1D6GZW1) | – | EMSA | double-stranded DNA, one strand shown | – | – | binds |
| TTATTCAGCCATCAAAAGTTGACAAATAAT (dsDNA) | WRKY11 full length assumed | – | EMSA | double-stranded DNA, one strand shown | – | – | no binding |
| ACGUGUUACUGAUUCGAUCAGGCAUGAGU (ssRNA (Bacillus subtilis); hairpin, two internal loops) | glcT 1-60 (Bacillus subtilis, UniProt O31691) | – | EMSA | folded RNA | – | – | binds |
| UUAUGUACAAUUUUCGACAACAAAAUA (ssRNA) | brat | – | EMSA | RNA | – | – | no binding |

| Sequence | target | read-out | method | form | notes | together with | binding |
| --- | --- | --- | --- | --- | --- | --- | --- |
| TGCTGATTGGCCATGTGCGCTACACCGAGGGGCGGGG (dsDNA) | HIF1A/ARNT (Homo sapiens) | competition with unlabelled DNA | competition EMSA | double-stranded DNA, one strand shown | not purified | – | binds |
| TTATTCAGCCATCAAATGTTGACCATTAAT (dsDNA) | WRKY11 full length assumed | – | EMSA | double-stranded DNA, one strand shown | – | – | binds |
| GAGCTGAGCGGCACCCACAC (dsDNA (Homo sapiens); 5-methylcytosine) | T2, ZFP57 residues 227-287 C232F (Homo sapiens) | – | EMSA | double-stranded DNA, one strand shown | – | – | binds |
| AGGAAGTTTTCCGCTGGT (dsDNA) | T3, NFATC3 393-708 | – | EMSA | double-stranded DNA, one strand shown | – | – | binds |
| GATCTTTAGTTAACTTCCTCTCTGTCTGAAAAAAACTCCAGATC (dsDNA) | T1, Aebp2 223-496 (Mus musculus) | – | competition binding | double-stranded DNA, one strand shown | – | labelled T1 probe | no binding |
| TTATTCAGCCATCAAAAGTTGACCTATAAT (dsDNA) | WRKY11 full length assumed | – | EMSA | double-stranded DNA, one strand shown | – | – | binds |
| CATTCCCTGAGGACTTCAGTATCCCGTCCTCACAAGGCCAACCTCAGCATGA (dsDNA) | T1, Aebp2 223-496 (Mus musculus) | – | competition binding | double-stranded DNA, one strand shown | – | labelled T1 probe | binds |
| GGGAGACCUAGCCUCAUAUAAUCGUUGUCCAGAAUUGUAUAUAUUCGUAGCAUAAGUUUUCCAAACAUUAUUGGGUUGUCGAAAAUUGUACAUAAGCCAAUUAAGCCGCUA (ssRNA) | brat | – | EMSA | RNA | – | – | no binding |
| TAGGATGTTTCAAGTGATGAGATACG (dsDNA) | Transcription factor bHLH93 | – | EMSA | double-stranded DNA, one strand shown | – | – | no binding |
| CAGCAAATATTATTGACCAAGAAATGCAAA (dsDNA) | WRKY11 full length assumed | – | EMSA | double-stranded DNA, one strand shown | – | – | no binding |
| GATCTTTAAAAAAATTCCTCTCTGTCTGCAGGCCACTCCAGATC (dsDNA) | T1, Aebp2 223-496 (Mus musculus) | – | competition binding | double-stranded DNA, one strand shown | – | labelled T1 probe | no binding |
| TTATTCAGCCATCAAAAGTAGACCAATAAT (dsDNA) | WRKY11 full length assumed | – | EMSA | double-stranded DNA, one strand shown | – | – | no binding |
| GCCGCCCGCGGCAGCCAAGA (dsDNA (Homo sapiens); 5-methylcytosine) | T2, ZFP57 residues 227-287 C232F (Homo sapiens) | – | EMSA | double-stranded DNA, one strand shown | – | – | binds |
| TTATTCAGCCATCAAAAGGTGACCAATAAT (dsDNA) | WRKY11 full length assumed | – | EMSA | double-stranded DNA, one strand shown | – | – | no binding |
| ATCAGTCTAGACATACA (dsDNA) | Smad5 | – | EMSA | double-stranded DNA, one strand shown | – | – | binds |

Excerpt of the above:
| Sequence | target | read-out | method | form | notes | together with | binding |
| --- | --- | --- | --- | --- | --- | --- | --- |
| CAGCAAATATTATTGACCAAGAAATGCAAA (dsDNA) | WRKY11 full length assumed | – | EMSA | double-stranded DNA, one strand shown | – | – | no binding |
| GATCTTTAAAAAAATTCCTCTCTGTCTGCAGGCCACTCCAGATC (dsDNA) | T1, Aebp2 223-496 (Mus musculus) | – | competition binding | double-stranded DNA, one strand shown | – | labelled T1 probe | no binding |
| TTATTCAGCCATCAAAAGTAGACCAATAAT (dsDNA) | WRKY11 full length assumed | – | EMSA | double-stranded DNA, one strand shown | – | – | no binding |
| GCCGCCCGCGGCAGCCAAGA (dsDNA (Homo sapiens); 5-methylcytosine) | T2, ZFP57 residues 227-287 C232F (Homo sapiens) | – | EMSA | double-stranded DNA, one strand shown | – | – | binds |
